# Measured values of several laboratories.
# A part holds a random share of what one study measured.

# Sample 1
# Target: RING finger protein unkempt homolog, zinc fingers 1-6, GST-SBP tag (UNK, Homo sapiens, UniProt Q9C0B0, residues 30-357)
# Sequence of UniProt Q9C0B0 (30-357, looked up): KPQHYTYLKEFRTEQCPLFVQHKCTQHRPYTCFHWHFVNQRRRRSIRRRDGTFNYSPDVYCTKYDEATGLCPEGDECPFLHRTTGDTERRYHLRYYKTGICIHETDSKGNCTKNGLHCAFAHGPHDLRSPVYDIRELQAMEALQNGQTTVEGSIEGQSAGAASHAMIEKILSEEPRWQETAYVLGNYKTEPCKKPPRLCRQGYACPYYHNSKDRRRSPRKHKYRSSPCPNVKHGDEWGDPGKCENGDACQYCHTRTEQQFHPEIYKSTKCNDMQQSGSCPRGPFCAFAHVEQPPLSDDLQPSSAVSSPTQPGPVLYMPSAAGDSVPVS
# Method: RNA Bind-n-Seq
# Molecule type: RNA
# Medium: in vitro
# Tested at: not given
# Notes: RNA with constant flanks, human and mouse sites, ends assumed
# Relative to: input RNA pool
# Direction: higher = stronger binding
# Constant ends, left off below: GGGAGUUCUACAGUCCGACGAUC … CAACAGAGGAUUGAGCAUCA
Strand,bound/input enrichment [ratio]
UGGUCUUCAGAGAGCAACUAUCCUCCCCAAUACUUGAUUCUGAAGCUUGAAAGGCCUGCUAUCGUUCAGAAUAUUACAUUUGGAAAAUAUGAGAAAACUCAUGUCUGCAAUUUGAAGAAA,0.138
UGCAGCUCCCCACUCCAGCUCAAUCUGCUGCAGCUUGAGGAGUCCCCCCGCACGGAGGGGGGCGCUGCUGCAGGAGGCCCAGGAAGCAGUGCUGGGCCCCUGCCUCCCAGUGAGGAGACU,0.149
UCUGCGCGUGCGCCGGUGGCGGGACUCUGGGGAAAAUGGCUGCGUCUUCGAGUGGGAACUUAUAGAAAUGCUGGCAAUUUCAAGAAACCAAAAGUUGUUACAGGCUGGAGAGGAAAACCA,0.13
GAGAAAAGUGGAAUGGAGAAAAGUGGUUUGGAGUCCACUGUGUGUGUGACUAAUGUCAGGUCUUUCACUUCUGCUUUUCUCUUCUCCAUUGAAGUUCAAGUUACCAUUGGGUUUGGAGGG,0.223
AUAAUGAUGCUUUGCGAGGCUCGAAGAGCAGUUCAGAAGAAUAUGAUAUUUAUUGAUCAAAAUAGAGUUAUGCUUAAAUAUCUCUUUCCUUUGAAUGAAAUUGUGGUAGAUUUUUAUGAC,2.17
ACUCUGCUCUUCAGACCCCCUGUGUGAUUCAGAGAUGUGAACACGCAAAAUACACGCAGCAUUGCCCCUUCGAUGUUCUCAUCACAUAACGUUACCUCUAAAAGGGAAAAUCAUUGCCCC,0.152
CCAUGGUUGGUUGAAUCUGGAUGUGGAACCCGCUGACGUGGAUGGCUGACUGUAUUGCAGAACUGGGGCUCCCUUGCAUCUUCCAGUUACAAAUUCAGUGCCUUCUGCAGUUUCCCCAGA,0.162
GAUGUAUAUUUUGAAUAUGAAGAAAAAAUAAUGAGCAAAACUACUCUGGAUAAAUCUCUUCUAGAUAUAAUAUCAGACCCUGAUGCAGGAACUCCAGAAGAUAAAAUGAGGUUGUUUCUU,0.492
UGAAAGACUACCUAUGGUAUGACUUCACUUAUAUGAAGCGUCCGGAAGAAAGUUGGGAAUCCACGUGUUGAACUUACCCUCUCAGAGCUCCAAGAUAUGGCAGCUAGGCAACAGCAGCAG,0.203
CUGCUGUUCUUUACUUUGGGAUUGCUUAUACAUUUUGUGUUCUUCGCCUCCAUCUUUGACAUUUAUUUUACAUCUCCUUUGGUUCAUGGAAUGACUCCUCAGUUUACACCAUUGCCUCCU,0.474
AGACCUUUGGGUACAACCAAAGCUGCAGGAUACAAAGUCAGCCCAGGGAGACCUCCAGGUAGCAUUAAAGCUCUGUCCCGCCUUGCAGAUCUUGGCUAUGGCUGUGGCACUGCUGCCUUU,0.154

# Sample 2
# Target: Interferon regulatory factor 3, full length, phosphomimetic (IRF3, Homo sapiens, UniProt Q14653, residues 1-427, S386D/S396D/S398D/S402D/T404D/S405D)
# Method: protein-binding microarray
# Molecule type: double-stranded DNA, one strand shown
# Medium: in vitro
# Tested at: 2540 nM top
# Notes: 60-bp whole probe
# Together with: salmon DNA 0.4 mg/ml
# Relative to: random background probes
# Direction: higher = stronger binding
# Constant ends, left off below: GCCTAGCAC … GTCTTGATTCGCTTGACGCTGCTG
# Construct (chain): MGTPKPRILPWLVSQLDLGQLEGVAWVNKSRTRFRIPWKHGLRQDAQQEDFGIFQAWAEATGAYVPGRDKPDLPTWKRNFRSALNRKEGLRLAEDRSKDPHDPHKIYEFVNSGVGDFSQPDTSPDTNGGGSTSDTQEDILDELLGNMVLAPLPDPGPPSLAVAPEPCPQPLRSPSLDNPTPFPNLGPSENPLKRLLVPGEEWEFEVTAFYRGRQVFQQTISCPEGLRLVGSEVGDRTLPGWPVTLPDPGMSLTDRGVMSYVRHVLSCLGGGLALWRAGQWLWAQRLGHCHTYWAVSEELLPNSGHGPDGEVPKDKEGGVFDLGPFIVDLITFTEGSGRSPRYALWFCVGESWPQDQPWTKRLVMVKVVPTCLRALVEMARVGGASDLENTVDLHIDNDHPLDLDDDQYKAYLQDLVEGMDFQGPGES
Strand,fitted relative affinity
GGGGCTTGGGAGAGGCATCCGTGCTAG,-1.16 z-score
TTAGTTCTCGGTTTCGGTTAGTGCTAG,5.32 z-score
GACGGTTCCGGTTTCGGGCCGTGCTAG,5.5 z-score
TCTGTAATTCTTAGAACAGCGTGCTAG,-0.191 z-score
GACGATCTCGGTTTCGAGACGTGCTAG,2.68 z-score
TTAGATATCAGTCTCTATTAGTGCTAG,1.25 z-score
TTTTAAAATGGACACTGTACAGTGCTA,1.13 z-score
GATGAACTGGGGACTGGAGACGTGCTA,-0.95 z-score
GATGATATCAGTATCGAGACGTGCTAG,0.998 z-score
GAAGGTATCCTTTTCCTGACGTGCTAG,8.22 z-score
AAGGAAGGACCATCCAGAGAGTGCTAG,-0.432 z-score
GCCGGTATCGGTTTCGGGACGTGCTAG,7.09 z-score
GAGGGTTTCGGTTCCGGGACGTGCTAG,8.98 z-score
TTAGAACTGAGTATCGTTTAGTGCTAG,0.436 z-score
TCATGCTTGTGTTTATTACTGTGCTAG,-0.239 z-score
GACGGTCTCGGCTTCGGGACGTGCTAG,-0.116 z-score
TCAGAATTACCTCTGGAACTGTGCTAG,-0.0217 z-score
GACGGTTTCGGTATCGGCACGTGCTAG,8.08 z-score
AGCTATCACTATTCTAGGGAAGTGCTA,1.01 z-score
TTTGCTTTCTTTTATGCTCTGTGCTAG,2.72 z-score

# Sample 3
# Target: RNA binding protein fox-1 homolog 2, RRM domain, GST-SBP tag (RBFOX2, Homo sapiens, UniProt O43251-10, residues 100-194)
# Method: RNA Bind-n-Seq
# Molecule type: RNA
# Medium: in vitro
# Tested at: 365 nM
# Notes: natural RNA segment, single round, ends assumed
# Relative to: no-protein control
# Direction: higher = stronger binding
# Constant ends, left off below: GGGAGUUCUACAGUCCGACGAUC … UGGAAUUCUCGGGUGCCAA
# Construct (chain): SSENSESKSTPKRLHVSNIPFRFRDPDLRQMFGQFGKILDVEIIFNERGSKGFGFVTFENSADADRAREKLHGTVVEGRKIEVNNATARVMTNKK
Strand,RBNS enrichment (R)
UUGUCCUUGGGUCACCCUGCAUUCCAUAGCCAUGUGCUUGUCCCUGUGCUCCCACGGUUCCCAGGGGCCAGGCUGGGAGCCCACAGCCACCCCACUAUGCCGCAGGCCGC,0.289
CCUAAGGAAGCCAGUCACCUUCUGGGCAAGGGCUCCUAUCUUUCCUCCCUAUCCAUGGCACUAAACCACUUCUCUGCUGCCUCUGUGGAAGAGAUUCCUAUUACUGCAGU,0.4
AGCAGCAAUUAAGUUGUUUGUAUUUUGCUUAACUAAAACAAAAAUGCUUUUAUCUUGCUAUAGAAUAAACACAUUUCAGUAAAAACUGUGGACUGUAUUUUGAUGCAACA,1.02
AAAGCUUAGCCUAGCAGUCAGUGACUUACUUGCACUUUUUGCACAUAGAUAUAAAGUAAAAUUAUGUUAUUAAUUUGGUUUAGUCUGUAAUAUUACACAGUAAUGGUAAU,0.356
AUCUUUUACAAAGGCAAGUUGCCACUUGUCAUUUUUGUUUCUGAAAAAUAAAAGUAUAACUUAUUCAAUUUUUAGUGCUUUGUUAUUGAGAAAAUCUUCUUAAAUGUUGA,1.14
UAACUGAAUAUUCAAAGCACUGCGGGAAACCUGUGCCUCCAGACACUGCUCCCUGUGAAAUUCUGAAGGUGUUUCUUAGUGGAUUAUCGUAAAUCACUGAACCUUUUUUU,0.506
UUAUAUAUUCAGAUGGAAAAAAAUUUCCCCUUACACUCUUUCUCAAAAUACUCUCAUUUCGGUUUUUCCUGAAACCUUAUUUGGCCAUUCCCAUGGUUUUAUGACAGACA,0.962
GACUCUGGUCUUGGCUAUGCUGAAGACUUUUUUAAAAAAUGGUUUUCAGGGAACCGUGAGGAUCUGGCAACAUGGCUCUGCUUGCAAUAUCCACUGAGCACUGUAAUACA,0.698
CCAGCAUCCCAGUGAAGUUCGUCCAGCUCCAGUUAGGUGGAUUCUGGAGUUCGGAGAGGGUUUAAAGUUUGGCUGAAAUAGCACCUCAAGUGGGGUUUAGUUUUAUUUUU,1.3
AGGCUACAGCCUAAUUAUUUUCCUUUGUCGCCCCUCCUUUUUCUGAUUGAUGGUUGUAUUAUUUUCUCUGAAUCCUCUUCACUGGCCAAAGGUUGGCAGAUAGAGGCUGU,0.725
AGGAAUAGGCAAGAAGCCAGUCUCCCCAGGUUGGAAGAGGAUCAUGGGCCUGGCCUAGCUCCUCCGCCCUGGCCUAGCCCAGCAAACCCUGGGCGAGUCACAGAGUUUGC,0.247
GCUUUUCUUCCUCAGGAGUAUGAAUUUUCUGAGCUAGCUGCUGUAAAUUCAGUGAGGCUAAAGGGAUACUUGAAUGUUAUUUUUUUUCUCCUAAGAAAAUGGGAGGCUAC,0.958

# Sample 4
# Target: Sal-like protein 4, full length isoform B (SALL4, Homo sapiens, UniProt Q9UJQ4-2, residues 1-616)
# Method: universal PBM
# Molecule type: double-stranded DNA, one strand shown
# Medium: in vitro
# Tested at: not given
# Notes: 8-mer, flanks averaged, mean of replicates
# Direction: higher = stronger binding
Strand,E-score
ACTGTATC,0.132
CTATGGAG,0.0841
CTTGCAAA,0.157
AATCGTCC,-0.0529
TGTCCCAA,-0.0639
ACAGCTAG,-0.15
GTCGACTA,0.0853
AAACACAT,0.24
TGGGTCAA,-0.131
ACGGGGTC,-0.253
CAAGCTGG,-0.144
GATTAGCA,0.0551
CGACAAAC,0.0372
TGTCTTAA,0.187
GACCTCTC,-0.0845
TAGTGTAA,0.259
ACTAGGGA,-0.0792
CACCTAAA,0.00264
CGGGGACA,-0.166
CAGCGCTC,-0.133
CTTCTAAA,0.129
AATAAACG,0.307
GCCATTCC,-0.237
ACGTTTGA,0.202
GCGCTAAC,-0.0979

# Sample 5
# Target: Transcriptional repressor CTCF (CTCF, Homo sapiens, UniProt P49711, residues 1-727, full length assumed)
# Sequence of UniProt P49711 (whole entry, looked up): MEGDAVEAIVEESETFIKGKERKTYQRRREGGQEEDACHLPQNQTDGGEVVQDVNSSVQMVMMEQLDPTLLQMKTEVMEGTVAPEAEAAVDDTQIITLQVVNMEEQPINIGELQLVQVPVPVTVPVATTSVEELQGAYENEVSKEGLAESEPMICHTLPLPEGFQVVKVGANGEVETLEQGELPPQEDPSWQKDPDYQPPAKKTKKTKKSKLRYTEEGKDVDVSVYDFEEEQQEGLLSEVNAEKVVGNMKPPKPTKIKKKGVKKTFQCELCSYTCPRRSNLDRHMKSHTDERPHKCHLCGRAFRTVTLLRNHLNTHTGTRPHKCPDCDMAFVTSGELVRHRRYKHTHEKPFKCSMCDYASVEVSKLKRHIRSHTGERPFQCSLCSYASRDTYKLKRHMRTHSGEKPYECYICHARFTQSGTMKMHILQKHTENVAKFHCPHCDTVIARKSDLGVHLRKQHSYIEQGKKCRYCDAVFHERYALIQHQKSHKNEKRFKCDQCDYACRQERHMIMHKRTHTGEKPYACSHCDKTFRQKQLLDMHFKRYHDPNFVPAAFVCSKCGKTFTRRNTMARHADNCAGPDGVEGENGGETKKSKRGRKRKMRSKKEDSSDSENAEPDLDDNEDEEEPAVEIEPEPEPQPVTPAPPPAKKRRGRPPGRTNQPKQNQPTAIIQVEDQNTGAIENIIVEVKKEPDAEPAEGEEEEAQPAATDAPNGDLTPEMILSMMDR
# Method: protein-binding microarray
# Molecule type: double-stranded DNA, one strand shown
# Medium: in vitro
# Tested at: not given
# Notes: k-mer, scored over probes, only values ≥0.25
# Direction: higher = stronger binding
Strand,E-score
ACAATAAC,0.257
GTTAATAA,0.291
AAATCAAA,0.268
AAAATTTA,0.259
ATTTAACG,0.252
GCGCACAA,0.405
CTGTTATA,0.292
ATATTATA,0.312
AGATTATA,0.264
CAGAAATG,0.251
GCGCCTAC,0.285
GGTATATA,0.305
AATTAAGT,0.296
TATACACA,0.307
AACAAATT,0.319
ATTTACCG,0.272
GAAAAAAA,0.326
ATATACTC,0.278
CACCGGAA,0.296
AACGCGCT,0.256

# Sample 6
# Target: Histone acetyltransferase KAT6A, winged helix 2, GST fusion (KAT6A, Homo sapiens, UniProt Q92794, residues 85-181)
# Method: protein binding microarray
# Molecule type: double-stranded DNA, one strand shown
# Medium: in vitro
# Tested at: not given
# Notes: 8-mer, flanks averaged, mean of 2 arrays, mostly near background
# Relative to: not given
# Direction: higher = stronger binding
# Target sequence (chain): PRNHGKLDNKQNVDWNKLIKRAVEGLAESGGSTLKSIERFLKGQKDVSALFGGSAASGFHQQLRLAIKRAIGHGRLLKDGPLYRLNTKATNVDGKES
Strand,E-score
CGACCCGA,0.154
CAAAAAAC,0.117
AATAATTA,0.218
ACGCACGA,0.173
CGATAGAC,-0.144
CCTCGACA,0.0253
CGAGTCAA,0.0296
GCAGCCTA,-0.0278
ACCCAAAT,-0.0253
ACATAGGC,-0.144
GGCGCCCC,0.213
ACAATCTA,0.023
GATCCGGC,0.113
ACTATATG,0.0134
ATACAAAG,0.197
GGGTGACA,0.0989
ATTGATTC,0.136
ATCAGGTC,-0.104
GAGAGTAA,0.128
AGTGCTGA,-0.129

# Repeated from above (sample 4):
Strand,E-score
GTCGACTA,0.0853
AAACACAT,0.24
TGGGTCAA,-0.131
ACGGGGTC,-0.253
CAAGCTGG,-0.144
GATTAGCA,0.0551
CGACAAAC,0.0372
TGTCTTAA,0.187
GACCTCTC,-0.0845
TAGTGTAA,0.259
ACTAGGGA,-0.0792
